Published values pooled from the literature.
Lines come from different studies, so protocols differ. ± marks the error that the study gave.
Organism: Trypanosoma brucei rhodesiense

`N=C(N)c1ccc(-c2ccc(-c3ccc(C(=N)N)s3)s2)cc1` has a cured mice of 0% (STIB900, mice, acute infection model; intraperitoneal, 5 mg/kg for 4 days, parasite-free at 60 days).
The cured mice of `N=C(N)c1ccc(-c2cncc(-c3ccc(C(=N)N)cn3)n2)cc1` is reported as 100% (STIB900, mouse, acute infection; intraperitoneal, 5 mg/kg daily, 4 days, parasite-free survival 60 days).
The IC50 of `O=C1CSC(=S)N1/N=C/c1c[nH]c2ccc([N+](=O)[O-])cc12` is reported as > 61 µM (trypomastigotes, IL1501).
For `CO/N=C(\N)c1ccc(-c2cncc(-c3ccc(/C(N)=N\OC)cc3)n2)nc1`, the cured mice was 75% (STIB900, mouse, acute infection; oral, 25 mg/kg daily, 4 days, parasite-free survival 60 days).
`O=C1CSC(=S)N1/N=C/c1cn(Cc2cccc(Cl)c2)c2ccc([N+](=O)[O-])cc12` gave an IC50 of > 56 µM (trypomastigotes, IL1501).
`N=C(N)c1ccc(-c2ccc(-c3ccc(C(=N)N)s3)o2)cc1` gave a cured mice of 0% (STIB900, mice, acute infection model; intraperitoneal, 5 mg/kg for 4 days, parasite-free at 60 days).
The cured mice of `N=C(N)c1ccc(-c2cncc(-c3ccc(C(=N)N)nc3)n2)cc1` is reported as 50% (STIB900, mouse, acute infection; intraperitoneal, 5 mg/kg daily, 4 days, parasite-free survival 60 days).
The IC50 of `O=[N+]([O-])c1ncn(CCCNc2ccnc3cccnc23)n1` is reported as 0.5 to 6 µM (growth; STIB900; bloodstream trypomastigotes).
For `N=C(N)c1ccc(-c2cncc(-c3ccc(C(=N)N)cn3)n2)nc1`, the cured mice was 50% (STIB900, mouse, acute infection; intraperitoneal, 5 mg/kg daily, 4 days, parasite-free survival 60 days).
The IC50 of `O=C1NC(=S)S/C1=C\c1cn(Cc2ccc(F)cc2)c2ccc([N+](=O)[O-])cc12` is reported as > 63 µM (trypomastigotes, IL1501).
`N/C(=N\O)c1ccc(-c2cncc(-c3ccc(/C(N)=N\O)nc3)n2)cn1` has a cured mice of 100% (STIB900, mouse, acute infection; oral, 25 mg/kg daily, 4 days, parasite-free survival 60 days).
For `O=C1CSC(=S)N1/N=C/c1cn(Cc2ccc(F)cc2)c2ccc([N+](=O)[O-])cc12`, the IC50 was 58.1 ± 3.84 µM (trypomastigotes, IL1501).
For `O=[N+]([O-])c1ncn(CCCN2CCN(Cc3ccc(Cl)c(Cl)c3)CC2)n1`, the IC50 was 0.5 to 6 µM (growth; STIB900 bloodstream trypomastigotes).
`N=C(N)c1ccc(-c2ccc(-c3ccc(C(=N)N)o3)s2)cc1` gave a cured mice of 50% (STIB900, mice, acute infection model; intraperitoneal, 5 mg/kg for 4 days, parasite-free at 60 days).
`O=Cc1c[nH]c2ccc([N+](=O)[O-])cc12` gave an IC50 of > 131 µM (trypomastigotes, IL1501).

Excerpt of the above:
The cured mice of `N=C(N)c1ccc(-c2cncc(-c3ccc(C(=N)N)nc3)n2)cc1` is reported as 50% (STIB900, mouse, acute infection; intraperitoneal, 5 mg/kg daily, 4 days, parasite-free survival 60 days).
For `CO/N=C(\N)c1ccc(-c2cncc(-c3ccc(/C(N)=N\OC)cc3)n2)nc1`, the cured mice was 75% (STIB900, mouse, acute infection; oral, 25 mg/kg daily, 4 days, parasite-free survival 60 days).
